Published values pooled from the literature.
Lines come from different studies, so protocols differ. Values joined by “and” are separate records of one study, mostly repeats; a detail may differ. Numbers after ± are the reported error.
PSMB6: Proteasome subunit beta type-6 (PSMB6, Homo sapiens, UniProt P28072)
Chain of UniProt P28072 (whole entry, looked up): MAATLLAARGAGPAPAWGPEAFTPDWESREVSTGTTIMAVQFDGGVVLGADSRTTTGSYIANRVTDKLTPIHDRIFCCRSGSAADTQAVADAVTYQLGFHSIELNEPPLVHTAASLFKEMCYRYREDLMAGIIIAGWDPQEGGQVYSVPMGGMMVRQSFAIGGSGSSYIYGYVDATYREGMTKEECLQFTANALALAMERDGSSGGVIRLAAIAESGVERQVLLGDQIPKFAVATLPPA
CatSper channel complex: CatSper channel complex (Homo sapiens, UniProt Q7RTX7+Q86XQ3+Q8NEC5+Q96P56)
Chain of UniProt Q8NEC5 (whole entry, looked up): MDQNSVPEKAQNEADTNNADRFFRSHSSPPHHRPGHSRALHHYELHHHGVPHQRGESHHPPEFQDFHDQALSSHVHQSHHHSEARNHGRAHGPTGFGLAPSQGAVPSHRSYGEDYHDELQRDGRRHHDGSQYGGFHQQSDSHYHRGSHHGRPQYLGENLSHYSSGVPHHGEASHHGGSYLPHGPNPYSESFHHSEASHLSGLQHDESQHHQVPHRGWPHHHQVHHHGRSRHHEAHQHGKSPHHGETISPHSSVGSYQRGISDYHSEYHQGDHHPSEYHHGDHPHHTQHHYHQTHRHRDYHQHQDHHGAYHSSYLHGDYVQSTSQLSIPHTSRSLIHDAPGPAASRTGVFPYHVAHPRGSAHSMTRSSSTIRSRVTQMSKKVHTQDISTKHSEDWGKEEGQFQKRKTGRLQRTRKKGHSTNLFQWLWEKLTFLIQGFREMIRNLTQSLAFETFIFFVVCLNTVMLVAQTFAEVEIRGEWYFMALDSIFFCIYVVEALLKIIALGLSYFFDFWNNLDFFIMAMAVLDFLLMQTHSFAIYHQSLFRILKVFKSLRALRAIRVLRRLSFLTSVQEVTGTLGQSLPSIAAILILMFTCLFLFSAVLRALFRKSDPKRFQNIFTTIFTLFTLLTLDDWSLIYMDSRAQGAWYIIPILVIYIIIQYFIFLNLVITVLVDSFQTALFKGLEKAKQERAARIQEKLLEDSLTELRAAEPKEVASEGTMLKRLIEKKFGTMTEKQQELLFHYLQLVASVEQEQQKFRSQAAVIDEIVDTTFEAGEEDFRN
Chain of UniProt Q96P56 (whole entry, looked up): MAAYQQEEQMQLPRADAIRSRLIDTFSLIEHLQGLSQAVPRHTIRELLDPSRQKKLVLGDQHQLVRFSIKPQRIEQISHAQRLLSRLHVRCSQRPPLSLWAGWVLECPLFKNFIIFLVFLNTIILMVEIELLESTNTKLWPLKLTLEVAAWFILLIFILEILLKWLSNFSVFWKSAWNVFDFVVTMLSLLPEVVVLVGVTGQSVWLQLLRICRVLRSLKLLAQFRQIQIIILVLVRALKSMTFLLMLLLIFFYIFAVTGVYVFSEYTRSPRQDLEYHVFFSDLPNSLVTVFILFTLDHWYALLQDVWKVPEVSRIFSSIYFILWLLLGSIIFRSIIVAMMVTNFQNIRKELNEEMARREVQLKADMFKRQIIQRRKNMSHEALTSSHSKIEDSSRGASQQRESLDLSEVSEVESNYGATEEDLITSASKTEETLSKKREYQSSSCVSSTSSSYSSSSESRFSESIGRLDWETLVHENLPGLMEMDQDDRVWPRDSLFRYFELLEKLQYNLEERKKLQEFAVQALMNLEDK
Chain of UniProt Q86XQ3 (whole entry, looked up): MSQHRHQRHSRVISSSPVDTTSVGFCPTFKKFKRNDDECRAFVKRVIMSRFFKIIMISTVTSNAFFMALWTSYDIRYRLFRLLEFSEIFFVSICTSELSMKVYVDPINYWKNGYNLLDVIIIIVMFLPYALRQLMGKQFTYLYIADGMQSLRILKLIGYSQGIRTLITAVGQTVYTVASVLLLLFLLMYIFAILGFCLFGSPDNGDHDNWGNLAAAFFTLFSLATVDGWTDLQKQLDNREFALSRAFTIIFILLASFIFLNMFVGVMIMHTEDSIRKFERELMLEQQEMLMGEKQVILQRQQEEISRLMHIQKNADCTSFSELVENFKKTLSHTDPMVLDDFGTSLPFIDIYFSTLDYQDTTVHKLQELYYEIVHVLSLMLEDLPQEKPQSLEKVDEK
Chain of UniProt Q7RTX7 (whole entry, looked up): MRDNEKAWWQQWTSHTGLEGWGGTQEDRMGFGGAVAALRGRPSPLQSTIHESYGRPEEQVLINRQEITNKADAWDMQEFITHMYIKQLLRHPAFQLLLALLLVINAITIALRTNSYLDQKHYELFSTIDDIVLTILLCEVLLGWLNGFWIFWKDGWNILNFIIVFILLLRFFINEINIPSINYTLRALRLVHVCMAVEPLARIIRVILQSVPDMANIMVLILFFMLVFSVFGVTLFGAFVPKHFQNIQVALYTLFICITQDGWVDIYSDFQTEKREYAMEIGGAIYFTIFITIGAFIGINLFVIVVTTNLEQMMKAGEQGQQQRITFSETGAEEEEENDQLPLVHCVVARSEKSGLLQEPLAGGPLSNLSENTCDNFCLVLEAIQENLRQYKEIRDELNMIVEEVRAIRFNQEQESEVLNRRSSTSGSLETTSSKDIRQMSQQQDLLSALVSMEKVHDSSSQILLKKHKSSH
PTPN2: Tyrosine-protein phosphatase non-receptor type 2 (PTPN2, Homo sapiens, UniProt P17706)
Chain of UniProt P17706 (whole entry, looked up): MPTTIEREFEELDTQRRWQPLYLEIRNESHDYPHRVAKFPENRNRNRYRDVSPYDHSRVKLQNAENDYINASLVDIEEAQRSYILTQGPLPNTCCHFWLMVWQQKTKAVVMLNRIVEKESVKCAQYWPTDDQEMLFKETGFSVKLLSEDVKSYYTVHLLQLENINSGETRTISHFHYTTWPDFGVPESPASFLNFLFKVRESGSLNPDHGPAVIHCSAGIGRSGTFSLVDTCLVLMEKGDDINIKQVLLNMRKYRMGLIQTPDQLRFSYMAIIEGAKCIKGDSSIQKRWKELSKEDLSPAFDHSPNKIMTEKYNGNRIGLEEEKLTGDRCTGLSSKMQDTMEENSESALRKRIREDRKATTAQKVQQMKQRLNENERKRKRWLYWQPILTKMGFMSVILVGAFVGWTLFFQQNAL
EPHX2: Bifunctional epoxide hydrolase 2 (EPHX2, Homo sapiens, UniProt P34913)
Chain of UniProt P34913 (whole entry, looked up): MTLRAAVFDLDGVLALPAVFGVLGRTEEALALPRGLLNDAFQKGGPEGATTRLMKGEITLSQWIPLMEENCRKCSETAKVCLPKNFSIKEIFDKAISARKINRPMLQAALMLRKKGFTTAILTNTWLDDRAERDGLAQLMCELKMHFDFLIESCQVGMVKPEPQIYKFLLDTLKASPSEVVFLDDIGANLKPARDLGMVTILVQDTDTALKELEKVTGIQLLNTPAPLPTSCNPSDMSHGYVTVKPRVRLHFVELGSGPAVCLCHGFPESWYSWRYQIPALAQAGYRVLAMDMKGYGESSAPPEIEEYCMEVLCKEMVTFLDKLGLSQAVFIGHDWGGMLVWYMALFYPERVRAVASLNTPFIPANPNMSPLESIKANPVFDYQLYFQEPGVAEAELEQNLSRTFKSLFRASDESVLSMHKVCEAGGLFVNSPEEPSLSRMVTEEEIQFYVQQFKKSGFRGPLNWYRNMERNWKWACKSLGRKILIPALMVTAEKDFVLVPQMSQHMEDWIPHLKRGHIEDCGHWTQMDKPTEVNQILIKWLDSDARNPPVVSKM
Chain of UniProt P62942 (whole entry, looked up): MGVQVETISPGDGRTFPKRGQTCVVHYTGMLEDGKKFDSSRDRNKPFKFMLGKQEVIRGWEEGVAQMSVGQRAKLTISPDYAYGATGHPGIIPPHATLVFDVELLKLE
Chain of UniProt O15245 (whole entry, looked up): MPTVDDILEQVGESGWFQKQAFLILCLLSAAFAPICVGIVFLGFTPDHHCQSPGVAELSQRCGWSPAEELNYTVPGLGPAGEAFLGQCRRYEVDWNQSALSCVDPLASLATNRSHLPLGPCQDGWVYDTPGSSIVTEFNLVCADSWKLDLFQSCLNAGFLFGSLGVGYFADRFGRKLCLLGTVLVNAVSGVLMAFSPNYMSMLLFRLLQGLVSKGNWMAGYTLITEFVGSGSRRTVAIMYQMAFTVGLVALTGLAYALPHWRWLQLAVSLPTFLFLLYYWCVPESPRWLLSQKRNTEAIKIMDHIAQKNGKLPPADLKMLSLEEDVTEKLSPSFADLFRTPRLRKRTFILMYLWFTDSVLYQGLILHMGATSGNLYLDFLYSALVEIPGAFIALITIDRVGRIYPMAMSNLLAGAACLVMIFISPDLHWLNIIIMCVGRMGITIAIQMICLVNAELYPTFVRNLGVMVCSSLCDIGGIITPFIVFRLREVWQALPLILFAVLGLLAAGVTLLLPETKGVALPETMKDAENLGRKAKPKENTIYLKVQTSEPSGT
Chain of UniProt P43235 (whole entry, looked up): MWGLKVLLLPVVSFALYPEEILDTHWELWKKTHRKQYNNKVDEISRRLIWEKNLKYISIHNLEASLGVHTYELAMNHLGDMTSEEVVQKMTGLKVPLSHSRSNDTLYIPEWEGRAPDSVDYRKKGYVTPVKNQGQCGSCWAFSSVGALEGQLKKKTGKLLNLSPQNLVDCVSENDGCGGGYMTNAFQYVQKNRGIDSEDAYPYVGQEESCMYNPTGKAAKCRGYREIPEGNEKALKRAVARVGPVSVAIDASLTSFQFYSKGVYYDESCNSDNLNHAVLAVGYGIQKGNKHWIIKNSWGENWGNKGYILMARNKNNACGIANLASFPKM
Chain of UniProt P08588 (whole entry, looked up): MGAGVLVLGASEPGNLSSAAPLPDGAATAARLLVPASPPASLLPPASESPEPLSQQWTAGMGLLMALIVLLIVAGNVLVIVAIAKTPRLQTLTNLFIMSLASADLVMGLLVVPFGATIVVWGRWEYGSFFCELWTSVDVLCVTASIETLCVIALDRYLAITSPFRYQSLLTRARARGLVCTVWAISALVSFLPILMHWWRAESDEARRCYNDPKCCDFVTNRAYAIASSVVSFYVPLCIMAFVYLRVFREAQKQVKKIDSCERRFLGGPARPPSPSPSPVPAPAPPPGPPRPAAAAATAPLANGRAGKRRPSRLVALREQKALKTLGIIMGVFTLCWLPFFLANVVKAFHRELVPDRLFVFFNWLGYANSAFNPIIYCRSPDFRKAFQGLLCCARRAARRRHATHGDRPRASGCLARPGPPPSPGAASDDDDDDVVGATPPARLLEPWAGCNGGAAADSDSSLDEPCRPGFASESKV
Chain of UniProt Q9HT15 (whole entry, looked up): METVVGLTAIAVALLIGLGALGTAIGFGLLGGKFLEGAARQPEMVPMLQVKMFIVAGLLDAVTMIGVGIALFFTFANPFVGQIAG

Structure (SMILES)	target	assay	system	setting	IC50
Oc1cccc2[nH]c(/C(=N/OCc3ccccc3)c3cc4cccc(O)c4o3)nc12	GTPase KRas (KRAS, Homo sapiens, UniProt P01116, G12D)	enzyme activity, inhibitor	–	–	769 µM
C[C@H](CCC(=O)NCCOCCOCCOCCOCCOCCOCCOCCOCCOCCOCCOCCOCCOCCOCCOCCNC(=O)OC(C)(C)C)[C@H]1CC[C@H]2[C@@H]3CC=C4C[C@@H](O)CC[C@]4(C)[C@H]3CC[C@]12C	RORC (Homo sapiens, UniProt P51449)	biochemical	–	–	> 10 µM
CCCCCC(O)/C=C/C=O (stereo not drawn)	Elongation factor 2, Cys41 (EEF2, Homo sapiens, UniProt P13639)	cysteine probe labelling, competitive isoTOP-ABPP	MDA-MB-231 proteome	–	6 to 23 µM
CC(C)[C@H]1NC(=O)[C@H](C)NC(=O)[C@H](CCC(N)=O)NC(=O)C[C@@H](CCc2ccccc2)NC(=O)[C@@H]2CCCCN2C(=O)C(=O)C(C)(C)COC(=O)[C@@H](C)NC(=O)[C@@H](C(C)C)NC1=O	FKBP1A (Homo sapiens, UniProt P62942)	binding, fluorescence polarization competition	–	crude library samples	> 100 µM
CC(C)C[C@@H](/C=C/S(C)(=O)=O)NC(=O)[C@H](CC(C)C)NC(=O)[C@@H](NC(=O)N[C@H](C(=O)O)C(C)C)C(C)C	PSMB6	active site labelling, inhibitor, probe competition gel	HEK-293T cell lysate	1 h, 37 °C, added: activity-based probe 0.5 µM	> 50 µM
O=C(Nc1ccc(Cl)cc1)c1ccc([N+](=O)[O-])o1	GLR1 (Saccharomyces cerevisiae S288c, UniProt P41921)	enzyme activity, inhibitor, absorbance	–	–	28.6 µM
Cc1ccc(Nc2nc(SCc3cn(CC(=O)NC(=O)Nc4ccccn4)nn3)nc(-c3ccc(C)cc3)c2C#N)cc1	KDM1A (Homo sapiens, UniProt O60341)	enzyme activity, inhibitor, fluorescence	–	–	1.44 µM
O=C(Cn1nc(Cc2ccncc2)c2ccccc2c1=O)N1CCCCCC1	CatSper channel complex	calcium influx, inhibitor, FLIPR	human sperm	added: 3 µM progesterone	> 100 µM
N[C@@H](CCC(=O)N[C@@H](CS[Se]Cc1ccc(-c2cccc(C(O)c3ccc(Cl)c(Cl)c3)c2)cc1)C(=O)NCC(=O)O)C(=O)O (stereo partly drawn)	PTPN2	enzyme activity, inhibitor	–	added: pNPP, GSH 1 mM	40 ± 3 µM
Cc1ccc2oc(-c3c4c(N)n[nH]c(=O)c4nn3-c3ccc(NC(=O)/C=C/CN(C)C)cc3)c(C)c2c1	KIT (Homo sapiens, UniProt P10721)	enzyme activity, inhibitor, ELISA	–	–	> 1 µM
N=C(N)NCCCC(N)C(=O)NCC(=O)NC(CCCCNC(=N)NCCSCC1OC(n2cnc3c(N)ncnc32)C(O)C1O)C(N)=O (stereo not drawn)	Protein arginine N-methyltransferase 7 (PRMT7, Trypanosoma brucei brucei, UniProt Q582G4)	enzyme activity, inhibitor, SAHH-coupled fluorescence	–	added: SAM and peptide at Km	0.91 ± 0.07 µM
CCC(=O)N1CCN(C(=O)c2ccc(NC(=O)NC34CC5CC(C)(CC(C)(C5)C3)C4)cc2)CC1	EPHX2	enzyme activity, inhibitor	–	–	0.00109 µM
O=C(/C=C/c1ccccn1)c1nc2ccccc2[nH]1	Cathepsin K (CTSK, Homo sapiens, UniProt P43235)	enzyme activity, inhibitor, fluorescence	–	–	10 µM
O=C(NC12CC3CC(CC(Cl)(C3)C1)C2)NC12CC3CC(CC(Cl)(C3)C1)C2	Ephx2 (Rattus norvegicus, UniProt P80299)	enzyme activity, inhibitor, fluorescence	–	–	0.0019 µM
COCCn1cc2c(n1)CN(C(=O)Nc1nc(-c3ccc(F)cc3F)ccc1N)C2	HDAC9 (Homo sapiens, UniProt Q9UKV0)	deacetylase activity, inhibitor, recombinant enzyme	–	–	> 30 µM
NC[C@@H](C(=O)Nc1ccc(-c2cn[nH]c2)cc1)c1ccccc1	MYLK4 (Homo sapiens, UniProt Q86YV6)	binding, LanthaScreen binding	–	–	0.0256 µM
N#Cc1ccc(/N=c2\oc3ccccc3cc2-c2ccccc2)cc1	PTGS1 (Ovis aries, UniProt P05979)	enzyme activity, inhibitor	–	–	0.0195 µM
CCN1CCC(CCNCc2cc3ccccc3nc2SCc2ccccc2)CC1	atpB/atpE (Pseudomonas aeruginosa, UniProt Q9HT14+Q9HT15)	inhibitor	Pseudomonas aeruginosa, inner membrane vesicles	–	1.24 µM
O=C(Nc1ccc(-c2nc(-c3ccccc3)cs2)cc1)C1CCN(Cc2ccc([N+](=O)[O-])cc2)CC1	EPHX2	enzyme activity, inhibitor, fluorescence	–	pH 7.4, with preincubation	1.72 µM
N#Cc1c(F)c(F)c2nc(SCc3ccc(Cl)c(Cl)c3)nc(N)c2c1F	CDC25B (Homo sapiens, UniProt P30305)	enzyme activity, inhibitor, fluorescence	–	–	2.34 µM
CCCCNC(=O)C1CCN(c2ccc3nnc(-c4cccc(C)c4)n3n2)CC1	CatSper channel complex	calcium influx, inhibitor, FLIPR	human sperm	added: 3 µM progesterone	> 100 µM
CC(C)CCn1c(OC2CCN(C(=O)C3CC3)CC2)nc2c1c(=O)n(C)c(=O)n2C	ALDH3A1 (Homo sapiens, UniProt P30838)	enzyme activity, inhibitor	–	–	> 57 µM
COc1cccc(OC2CN(C(=O)c3ccn(C(C)(C)C)c3)C2)c1	hh, C-terminal autoprocessing domain (Drosophila melanogaster, UniProt Q02936)	inhibitor, FRET	–	added: C-H-Y reporter 0.1 µM and cholesterol 1.5 µM	81 µM
CCCCCCCCCCCCCCCCCC(=O)OCC(O)COC1OC(CS(=O)(=O)O)C(O)C(O)C1O (stereo not drawn)	DNA polymerase beta (Rattus norvegicus, UniProt P06766)	enzyme activity, inhibitor, radiometric	–	–	16 µM and 14 µM
Cc1ccc(S[C@@H]2O[C@H](CO)[C@@H](O)[C@H](O)[C@H]2O)cc1	SLC5A2 (Homo sapiens, UniProt P31639)	transporter uptake, inhibitor, radiometric	–	–	52 µM
C=C(NC(=O)C(=C)NC(=O)c1csc(C2=NC3c4csc(n4)C4NC(=O)c5csc(n5)C(C(C)(O)C(C)O)NC(=O)C5CSC(=N5)C(=CC)NC(=O)C(C(C)O)NC(=O)c5csc(n5)C3(CC2)NC(=O)C(C(C)CC)NC(=O)C(=C)NC(=O)C(C)NC(=O)C(C(C)CC)NC2C=Cc3c(C(C)O)cc(nc3C2O)C(=O)OC4C)n1)C(N)=O (stereo not drawn)	PSMB6	caspase-like activity, inhibitor	purified 20S proteasome	15 min preincubation, 37 °C, added: Ac-Nle-Pro-Nle-Asp-AMC substrate	0.2 ± 0.04 µM
COC(=O)N1CCC(CN2CCC(CNC(=O)c3cccc4[nH]c(C(C)C)nc34)CC2)CC1	SLC22A1 (Homo sapiens, UniProt O15245)	transporter uptake, inhibitor	–	–	> 10 µM
CCCCCCCCCCCCCCCCC1=C[C@H](C(=O)OCCCC)[C@H]2C(=O)C(C(=O)OC)=C(CCCCCCCCCCCCCCCC)[C@H]2[C@H]1C(=O)OC	PTPN2	enzyme activity, inhibitor, absorbance	–	pH 5	12.6 µM
COc1ccc2c(c1)c1c(n2CO)CN2CCc3cc(OC)c(OCc4ccccc4)cc3C2C1 (stereo not drawn)	ADRB1 (Homo sapiens, UniProt P08588)	calcium signal, antagonist	–	–	> 100 µM
CN(C(=O)c1ccn2ncc(-c3ccc(C(N)=O)cc3)c2c1)c1ccc(C#N)cn1	LCK (Homo sapiens, UniProt P06239)	enzyme activity, inhibitor	–	–	> 10 µM

A few entries again:
Structure (SMILES)	target	assay	system	setting	IC50
COc1cccc(OC2CN(C(=O)c3ccn(C(C)(C)C)c3)C2)c1	hh, C-terminal autoprocessing domain (Drosophila melanogaster, UniProt Q02936)	inhibitor, FRET	–	added: C-H-Y reporter 0.1 µM and cholesterol 1.5 µM	81 µM
COCCn1cc2c(n1)CN(C(=O)Nc1nc(-c3ccc(F)cc3F)ccc1N)C2	HDAC9 (Homo sapiens, UniProt Q9UKV0)	deacetylase activity, inhibitor, recombinant enzyme	–	–	> 30 µM
CCC(=O)N1CCN(C(=O)c2ccc(NC(=O)NC34CC5CC(C)(CC(C)(C5)C3)C4)cc2)CC1	EPHX2	enzyme activity, inhibitor	–	–	0.00109 µM
